Results from different studies.
A part holds a random share of what one study measured. Positions count from the first letter of the parent shown.

Series 1 — technique: universal PBM; form: double-stranded DNA, one strand shown; medium: in vitro; tested at: 600 nM; direction: higher = stronger binding
Target: Sal-like protein 4, full length isoform A (SALL4, Homo sapiens, UniProt Q9UJQ4, residues 1-1053)
Sequence of UniProt Q9UJQ4 (whole entry, looked up): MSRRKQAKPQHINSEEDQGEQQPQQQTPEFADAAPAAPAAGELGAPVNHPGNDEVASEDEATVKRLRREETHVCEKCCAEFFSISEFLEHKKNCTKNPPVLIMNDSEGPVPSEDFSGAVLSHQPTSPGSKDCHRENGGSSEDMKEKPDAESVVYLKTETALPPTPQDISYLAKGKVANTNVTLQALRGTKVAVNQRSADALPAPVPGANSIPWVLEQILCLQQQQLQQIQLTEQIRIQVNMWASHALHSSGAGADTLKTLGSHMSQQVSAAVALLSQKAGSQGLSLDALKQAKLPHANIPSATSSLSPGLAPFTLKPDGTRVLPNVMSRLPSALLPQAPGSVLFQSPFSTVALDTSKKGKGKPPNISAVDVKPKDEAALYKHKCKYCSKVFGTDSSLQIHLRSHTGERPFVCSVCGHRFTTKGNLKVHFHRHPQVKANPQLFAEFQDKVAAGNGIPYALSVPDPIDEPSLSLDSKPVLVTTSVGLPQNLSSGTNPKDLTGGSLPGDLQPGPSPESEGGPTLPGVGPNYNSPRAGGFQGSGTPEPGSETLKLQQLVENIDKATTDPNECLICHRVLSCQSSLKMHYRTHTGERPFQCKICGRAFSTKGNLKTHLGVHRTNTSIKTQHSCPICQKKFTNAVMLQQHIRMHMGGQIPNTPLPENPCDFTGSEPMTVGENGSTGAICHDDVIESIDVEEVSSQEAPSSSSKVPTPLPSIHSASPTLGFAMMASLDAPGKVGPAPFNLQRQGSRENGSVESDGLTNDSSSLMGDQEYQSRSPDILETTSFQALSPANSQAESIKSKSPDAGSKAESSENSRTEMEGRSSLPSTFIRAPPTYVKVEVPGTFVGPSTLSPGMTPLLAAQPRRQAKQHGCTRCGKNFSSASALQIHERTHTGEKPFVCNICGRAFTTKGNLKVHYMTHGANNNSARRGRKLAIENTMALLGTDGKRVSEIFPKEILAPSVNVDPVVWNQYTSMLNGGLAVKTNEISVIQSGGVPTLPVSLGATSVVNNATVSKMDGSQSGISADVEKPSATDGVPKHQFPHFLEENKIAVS
Setting: 8-mer, flanks averaged, mean of replicates
Strand | E-score
CGTTATGA | 0.237
AGCTGCCG | -0.164
CACATATG | 0.144

Series 2 — technique: RNA Bind-n-Seq; form: RNA; medium: in vitro; tested at: 100 nM; reference: input RNA pool; direction: higher = stronger binding
Target: RING finger protein unkempt homolog, zinc fingers 1-6, SBP tag (UNK, Homo sapiens, UniProt Q9C0B0, residues 30-357)
Sequence of UniProt Q9C0B0 (30-357, looked up): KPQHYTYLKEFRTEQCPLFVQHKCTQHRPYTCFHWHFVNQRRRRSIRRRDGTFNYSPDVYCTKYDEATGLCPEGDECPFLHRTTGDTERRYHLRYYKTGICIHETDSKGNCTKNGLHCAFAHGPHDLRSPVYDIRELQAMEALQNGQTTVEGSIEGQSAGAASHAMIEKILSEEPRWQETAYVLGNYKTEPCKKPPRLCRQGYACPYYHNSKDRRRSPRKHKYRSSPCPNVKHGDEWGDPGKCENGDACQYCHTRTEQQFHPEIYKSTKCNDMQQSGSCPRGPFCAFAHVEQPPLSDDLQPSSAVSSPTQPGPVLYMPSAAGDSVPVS
Setting: RNA with constant flanks, vertebrate orthologous sites, ends assumed
Strand | bound/input enrichment [ratio]
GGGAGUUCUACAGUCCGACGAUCGUCUAAGAGUUGGAUACUUUUUGUUCCUUUUGGUCUCUGUUAACCUAUCUAUUGCUCUAUUAGUCCCUUUCUUGCACACGUAUUAUACUUUAAAAUUGUGUUUAUGUAAACUGGACUGAUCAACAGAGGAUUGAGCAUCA | 0.587
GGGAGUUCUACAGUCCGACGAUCAUCUCGUGCCUCUCCCCACGGGGGGUGGGGAAAGCUGAAUGACCCUCAGCUGUUCCAAUCCAGUGGGUUUUUUUUAUUUGUUUUUUGAUUUAAAAAGAAAUUACUGUAUUUAUUAUGACACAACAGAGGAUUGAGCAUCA | 0.354
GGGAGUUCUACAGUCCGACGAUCGUCCUUUCACACUGUCCCUGGCCAGGGUCGAGGACUGGAGGCUUCACUGAGGACCCACAUUUCAGUUUUCUACAUCAUUGUCCAGAAAGAGAUGUGACUGAAAUGGUCGAGUGUCUCUUUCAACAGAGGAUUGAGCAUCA | 0.318
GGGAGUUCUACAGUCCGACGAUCUGGGUUACUCCUAUUAUUAUCAAGUAGCUGGAAUUGUGAAGGUUGGAGUAGUUAGAUCUUUAGCUUUUAUUCCUUAUUUUUUGUAUUACUCUCCAUGUGUAUAAAUUAUUGAUCAUGUUGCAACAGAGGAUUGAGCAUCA | 4.41
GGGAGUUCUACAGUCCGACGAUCCCUAUAUGUAGAAAACAAUUUUCACUGAAGCCAUUGUCAGGUUUUCCCCCUAGAGUUUUGUUUGGAGCUCUUUAAUUUUAUACAAGCUUGCUGUGUUGGUUAUCAUUUCCCCAGAGUUAACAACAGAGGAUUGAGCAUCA | 0.767

Single results of other studies — CCNA2: CCNA2, cyclin fold, Cln2 fusion (human)
P1: PKN2 docking peptide (human); VSAVRKLDFSDTM; partner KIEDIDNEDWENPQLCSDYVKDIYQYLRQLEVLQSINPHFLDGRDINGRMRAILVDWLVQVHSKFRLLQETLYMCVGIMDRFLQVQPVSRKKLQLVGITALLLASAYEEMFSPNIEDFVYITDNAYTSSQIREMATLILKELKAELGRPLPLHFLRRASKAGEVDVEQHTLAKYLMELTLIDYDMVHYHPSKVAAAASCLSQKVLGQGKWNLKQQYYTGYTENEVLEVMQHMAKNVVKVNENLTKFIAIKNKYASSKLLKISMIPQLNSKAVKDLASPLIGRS
P2: ORC1 docking peptide (human); PRARKRLELGNLG; partner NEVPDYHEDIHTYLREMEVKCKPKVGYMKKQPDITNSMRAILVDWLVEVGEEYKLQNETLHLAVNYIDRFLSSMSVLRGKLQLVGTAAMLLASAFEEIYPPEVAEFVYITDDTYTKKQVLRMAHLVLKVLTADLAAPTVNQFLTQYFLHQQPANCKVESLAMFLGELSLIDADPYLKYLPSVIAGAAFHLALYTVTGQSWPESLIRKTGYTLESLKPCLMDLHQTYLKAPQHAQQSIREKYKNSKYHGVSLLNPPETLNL
Molecule | target | assay | test system | conditions | how to read | quantity | result
P1 D11S | CCNB2, cyclin fold, Cln2 fusion (human) | yeast growth competition, sequencing | yeast | weak parent motif | reference: not given, higher = stronger binding | normalised enrichment score | 0.118
PhoQ, residues 284 288 289 292 302 303 SSYNSA | PhoP, residues 12 14 15 18 19 GQAIL (Escherichia coli, UniProt P23836) | Sort-seq, refers to: YFP reporter | E. coli | PhoQ-PhoP variant library, together with: 10 µM Mg2+ | reference: high Mg2+ state, higher = stronger signaling | fold induction | 9.01
P2 R4N | CCNA2 | yeast growth competition, sequencing | yeast | strong parent motif | reference: not given, higher = stronger binding | normalised enrichment score | 1.53
P2 P1C | CCNA2 | yeast growth competition, sequencing | yeast | strong parent motif | reference: not given, higher = stronger binding | normalised enrichment score | 6.43

A few entries again (single results of other studies):
Molecule | target | assay | test system | conditions | how to read | quantity | result
P2 P1C | CCNA2 | yeast growth competition, sequencing | yeast | strong parent motif | reference: not given, higher = stronger binding | normalised enrichment score | 6.43
